Experimental data gathered from unrelated publications.
Every numbered part comes from another study and shows a few of its results, in no order.

Series 1 — technique: RNA Bind-n-Seq; form: RNA; matrix: in vitro; tested at: 365 nM; baseline: no-protein control; direction: higher = stronger binding
Target: RNA binding protein fox-1 homolog 2, RRM domain, GST-SBP tag (RBFOX2, Homo sapiens, UniProt O43251-10, residues 100-194)
Setting: natural RNA segment, single round, ends assumed
Construct (chain): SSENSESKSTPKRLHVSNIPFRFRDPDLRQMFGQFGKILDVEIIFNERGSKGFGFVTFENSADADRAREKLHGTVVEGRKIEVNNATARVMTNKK
| Strand | RBNS enrichment (R) |
| --- | --- |
| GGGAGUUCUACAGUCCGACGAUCAUGUUAAUUAGAAGGGGCUUUUGUACUCCAUUAAUGCUGUAUUUAGUUUACUAAUAGCUGCUCAGUUUGUCAGCUGAUAGUCUGAAUACUAUCAAAAACUAAGAACAUAGUGGAAUUCUCGGGUGCCAA | 0.385 |
| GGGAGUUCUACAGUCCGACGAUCACCAUGUAUCUUGGCCGGUUUCAUAUUUGUAAGAAGCACCGGUAGGAACCUAAGAGCAUCGGUUGGAGUGUGACCUCUGAUGCCCCUGCAUUCCCGCCACUGUGUCUCUGUGGAAUUCUCGGGUGCCAA | 0.471 |
| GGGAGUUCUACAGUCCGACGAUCCAAGUUCACUUGGCCAGUAACUUAUCUAACAAACUGUUUUACCACACUAUCUUGACACUUGAUAGAAGAGCCUAUUAGGAGUCACAGUGGUUUCGUAGAGUAAAACCCAAUGGAAUUCUCGGGUGCCAA | 0.277 |
| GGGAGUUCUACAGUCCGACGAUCCCUUCCCGCUUUUCCCAGAGCUAAUACACAGGUGCUAUUAUUCAGAAAAAAACUGGUCAGCUCUAGCCAACAGUGAGGUUUCUUUUCUUCUGCCCUAACUAUUGUGUAGCUGGAAUUCUCGGGUGCCAA | 0.329 |
| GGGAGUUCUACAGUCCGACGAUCGGAUUGUCCUCUUGGUGGACCGGAGUCCUGUCCUUCUCUGCCAAAGAGUUUUACCAAGAUGAAAAGGGUUGAAACACCUGUGAGUGCCUUACAUGGGAAGAACUGCUCUAUGGAAUUCUCGGGUGCCAA | 0.268 |
| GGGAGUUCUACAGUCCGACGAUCGCUCCAAAGAUAAUUACCCCAACACCUUAUCAAUGCUAUACUUCCUCUCAUAAUGGCAGUGUAGGUAUGUGGGAAGUGUCUGAGAUGGAGGACCAGGGAGUCUUUAGAGGUGGAAUUCUCGGGUGCCAA | 0.514 |

Series 2 — technique: universal PBM; form: double-stranded DNA, one strand shown; matrix: in vitro; tested at: 600 nM; direction: higher = stronger binding
Target: Sal-like protein 4, full length isoform A (SALL4, Homo sapiens, UniProt Q9UJQ4, residues 1-1053)
Sequence of UniProt Q9UJQ4 (whole entry, looked up): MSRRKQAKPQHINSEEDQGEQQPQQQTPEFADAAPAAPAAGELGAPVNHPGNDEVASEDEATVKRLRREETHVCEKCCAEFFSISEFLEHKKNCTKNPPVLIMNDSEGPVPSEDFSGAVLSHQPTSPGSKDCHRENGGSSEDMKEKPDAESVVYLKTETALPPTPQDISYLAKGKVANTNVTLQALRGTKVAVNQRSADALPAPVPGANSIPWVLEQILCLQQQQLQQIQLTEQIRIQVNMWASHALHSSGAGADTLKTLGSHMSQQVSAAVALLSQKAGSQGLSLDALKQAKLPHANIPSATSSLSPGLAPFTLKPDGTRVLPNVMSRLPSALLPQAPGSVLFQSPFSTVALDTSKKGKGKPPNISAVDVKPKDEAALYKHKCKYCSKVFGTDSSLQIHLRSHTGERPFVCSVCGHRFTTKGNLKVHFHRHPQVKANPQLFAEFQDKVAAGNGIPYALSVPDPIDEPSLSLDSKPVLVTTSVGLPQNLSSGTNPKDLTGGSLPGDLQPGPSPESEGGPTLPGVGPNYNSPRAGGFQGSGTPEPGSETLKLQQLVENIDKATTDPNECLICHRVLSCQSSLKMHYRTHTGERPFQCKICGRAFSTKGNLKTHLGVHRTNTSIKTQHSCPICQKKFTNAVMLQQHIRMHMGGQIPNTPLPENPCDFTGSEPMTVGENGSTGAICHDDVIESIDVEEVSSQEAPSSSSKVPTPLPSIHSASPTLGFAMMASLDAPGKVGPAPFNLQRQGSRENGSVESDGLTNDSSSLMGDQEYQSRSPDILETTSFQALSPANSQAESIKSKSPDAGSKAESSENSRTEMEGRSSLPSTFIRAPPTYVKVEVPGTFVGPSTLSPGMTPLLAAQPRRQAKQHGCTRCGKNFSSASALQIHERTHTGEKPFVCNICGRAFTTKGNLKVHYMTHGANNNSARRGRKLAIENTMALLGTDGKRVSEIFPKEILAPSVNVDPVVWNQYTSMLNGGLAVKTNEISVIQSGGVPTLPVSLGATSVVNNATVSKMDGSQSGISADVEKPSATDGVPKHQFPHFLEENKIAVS
Setting: 8-mer, flanks averaged, mean of replicates
| Strand | E-score |
| --- | --- |
| TGCTCCCA | -0.091 |
| ACGTTGAG | -0.0464 |
| AATGCATC | 0.135 |
| AGAACCAA | -0.0495 |
| ATCGTGGC | 0.0351 |
| TCTAATAA | 0.358 |

Series 3 — technique: aptamer microarray, sandwich; form: DNA with 2'F-ANA; matrix: in vitro; tested at: 200 nM; together with: Cy3 exosite-II aptamer, 400 nM; direction: higher = stronger binding; strand: GGTTGGTGTGGTTGG
Target: Prothrombin, mature alpha-thrombin (F2, Homo sapiens, UniProt P00734)
Setting: whole 15-mer aptamer, many near background
| Modification | mean fluorescence intensity [a.u.] |
| --- | --- |
| 2'F-ANA at 1 3 4 6 7 8 9 10 11 14 | 52.3 |
| 2'F-ANA at 1 2 4 6 7 12 13 14 15 | 63.6 |
| 2'F-ANA at 1 9 10 11 13 14 15 | 49.1 |
| 2'F-ANA at 6 9 11 12 15 | 577 |
| 2'F-ANA at 1 2 3 4 6 7 9 10 11 12 14 | 62.7 |
| 2'F-ANA at 1 4 7 9 10 11 12 13 | 54.1 |
| 2'F-ANA at 1 2 3 4 6 7 10 14 | 46.5 |
| 2'F-ANA at 1 2 3 5 8 9 14 15 | 48.2 |

Other studies, line by line
| Molecule | target | test | test system | conditions | how to read | endpoint | value |
| --- | --- | --- | --- | --- | --- | --- | --- |
| PhoQ, residues 284 288 289 292 302 303 NLAAMI | PhoP, residues 12 14 15 18 19 NQCAL (Escherichia coli, UniProt P23836) | Sort-seq, measured: YFP reporter | E. coli | PhoQ-PhoP variant library, together with: 10 µM Mg2+ | baseline: high Mg2+ state, higher = stronger signaling | fold induction | 13.3 |

Some of these lines once more (series 2):
| Strand | E-score |
| --- | --- |
| TGCTCCCA | -0.091 |
| TCTAATAA | 0.358 |
